Measurements from different studies.
A part holds a random share of what one study measured.

Block 1
Target: Histone acetyltransferase KAT6A, both winged helices, GST fusion (KAT6A, Homo sapiens, UniProt Q92794, residues 1-181)
Technique: protein binding microarray
Form: double-stranded DNA, one strand shown
Medium: in vitro
Concentration: not given
Notes: 8-mer, flanks averaged, mean of 2 arrays, mostly near background
Baseline: not given
Direction: higher = stronger binding
Quantity: E-score
Residues (chain): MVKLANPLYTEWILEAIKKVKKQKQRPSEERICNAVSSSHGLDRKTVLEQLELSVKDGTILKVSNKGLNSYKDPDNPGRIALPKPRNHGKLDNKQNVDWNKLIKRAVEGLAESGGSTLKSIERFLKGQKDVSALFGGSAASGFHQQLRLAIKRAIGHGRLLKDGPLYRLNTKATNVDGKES
AATTACAG: -0.00962
AAATAAGA: -0.0504
CCCGTATC: 0.197
ATGCTCTC: -0.164
GCTTTTCA: 0
ATCGCAGC: 0.0774
GGGTCTAC: -0.07
ACGCTTAT: 0.0729
CTAGGTTC: -0.0823
CCAGCGGC: 0.254
CTATATTA: -0.0402
AACCTGAG: -0.113
ATCATGAA: -0.0679
CAAGTCGA: -0.148
ATAATAAG: -0.12
TAAGCAAA: -0.0911
ACGCTACC: 0.181
ACTTATTA: -0.192
CGGCAAGA: 0.216
GATGCTCA: -0.0285
GTCGATGA: 0.0249

Block 2
Target: Interferon regulatory factor 5, full length, phosphomimetic (IRF5, Homo sapiens, UniProt Q13568-2, residues 1-514, S451D/S453D/S456D/S462D)
Technique: protein-binding microarray
Form: double-stranded DNA, one strand shown
Medium: in vitro
Concentration: 940 nM top
Notes: 60-bp whole probe
Together with: salmon DNA 0.4 mg/ml
Baseline: random background probes
Direction: higher = stronger binding
Quantity: fitted relative affinity
Constant ends, left off below: GCCTAGCAC … GTCTTGATTCGCTTGACGCTGCTG
TGGGTTTTCAGCTGTTTTTCTGTGCTA: 0.387 z-score
TTACGTTCCCTTTTCCTTTAGTGCTAG: 1.74 z-score
TCAATTCTGCTTTGCAAACTGTGCTAG: 0.0272 z-score
GACGGTATTGACTTTCGGGACGTGCTA: 1.3 z-score
TTATATATCGGGACTGGATTAGTGCTA: 0.271 z-score
TCACCTCTTTTTTTGGTACTGTGCTAG: 1.43 z-score
AAAATGATTTTTTTCATATAGTGCTAG: 0.403 z-score
GACGGACTGGACACCGGGGACGTGCTA: -0.683 z-score
TTAGGACTGGGTTGCGGTTAGTGCTAG: 0.204 z-score
ATAAATATGAGACTGGGGATGTGCTAG: -0.0221 z-score
TTAGGACTGGATTTCGGTTAGTGCTAG: 0.451 z-score
GGGCACATCTTAACATATGAGTGCTAG: -0.0274 z-score
TCAGTTTTCTCATTCGTACTGTGCTAG: 2.15 z-score
GACAATCTCAGTTTCGAGACGTGCTAG: 4.4 z-score
TTAGGTTTCGATTTTCGGTTAGTGCTA: 11.6 z-score
GACGGACTGCTTCTCATGACGTGCTAG: 0.143 z-score
TTAGGTTTCCTTTCCCTATAGTGCTAG: 2.55 z-score

Block 3
Target: RING finger protein unkempt homolog, zinc fingers 1-6, GST-SBP tag (UNK, Homo sapiens, UniProt Q9C0B0, residues 30-357)
Sequence of UniProt Q9C0B0 (30-357, looked up): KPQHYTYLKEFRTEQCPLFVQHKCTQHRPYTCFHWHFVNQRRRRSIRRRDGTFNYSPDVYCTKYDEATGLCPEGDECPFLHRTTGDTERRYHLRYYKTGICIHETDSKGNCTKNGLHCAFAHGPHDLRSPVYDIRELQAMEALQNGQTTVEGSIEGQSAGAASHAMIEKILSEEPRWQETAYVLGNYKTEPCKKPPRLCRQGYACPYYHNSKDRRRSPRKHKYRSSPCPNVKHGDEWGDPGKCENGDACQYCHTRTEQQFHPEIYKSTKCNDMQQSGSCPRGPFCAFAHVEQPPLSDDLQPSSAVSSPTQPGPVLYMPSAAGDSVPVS
Technique: RNA Bind-n-Seq
Form: RNA
Medium: in vitro
Concentration: not given
Notes: RNA with constant flanks, human and mouse sites, ends assumed
Baseline: input RNA pool
Direction: higher = stronger binding
Quantity: bound/input enrichment
Constant ends, left off below: GGGAGUUCUACAGUCCGACGAUC … CAACAGAGGAUUGAGCAUCA
GGGAGCGCCAUCAGAACCCAGGGAAUCUUUCUGAAGCCACACUCAUCUGACACACGUACACUUAGACCUGUCUCUUCUUUUGCUUUUCAAUUUUGGAAAGGGAUCUCUGUCCAGGUCAGC: 0.293 ratio
AAUGUUAAAGAACAAUUCAUCAAAAUGCUUAAAGAAAGCCAGAUGUUGACAAAUCUGAAAAGGAAGAAUGCUAAGAUGAUUUCAGAUAUCGAAAAGAAAAGGCAGCGUAUGAUUGAAGUC: 0.14 ratio
AGCAUAUCCAGCAGAGAUGUUCAGCCUGUCGCCUAUGAGGAGCCCAAACACUGGUGUUCGAUUGUCUACUAUGAAUUAAACAAUCGUGUUGGGGAAGCUUUUCAUGCAUCUUCUACUAGU: 0.154 ratio
AAUAUCAACUAAAAUAUCAUAGUUCUGUGGUAGACAUUGUUUUAUAAUGAAAUAACUGCAACUAGAGAAAACUGUAUAAAAACAUUAAAUUGUCAGUAUUUUUGUAAGGUUCCAUUUUGU: 0.643 ratio
CCUAGCAGUGGGGACAUGGGAGUAAAUCAGGGAUCCGAGGAAUCUGAGAGCCACCUCUGCUCUGACAGUACCCCUAAGAUGGAAGGCCCCCAGGCAGCCUGUGGCCUGAAGCUGGCAGGA: 0.172 ratio
UUUCACAUGAAAGAAGUGGUGGCUGCUAAAAAAAAAGCUACAGUGUUUAUUAAGGGUCUUUUUGAUUUAUGUAAAUAUUUGUAAAUUGGUCAGUGCCUGUAAAUUUAAAUAUAAAAAGUA: 0.419 ratio
CAAGGUGUACCUAAAGAGAAGCUUACUGGUACCAUCCAAAAUGAUAUACUAAAGGAAUUUAUGGUUCGAAAUACAUACAUUUUUCCUCCAGAACCAUCCAUGAAAAUUAUUGCUGACAUA: 0.196 ratio
CAGCACUGCCUCUCUGUUUGGGGAGAUGUAAUGCUGGAAGAUCUUAAGGACUACAUACAUUCUAGAGAUGACAGUGUUGUUCAAAGACAGCCUAGUAAGUAAUUGGUAGAAAUGCCCUUA: 0.224 ratio
AAAGAAAAACCACAGUCUAUUCAAACUUGUAUAGAGGUAUUUGUUGCAUUAACUAGUUUUGAGCCAAUUCCUCAUAAAUUUCUUAUUUCACAAGCCAGGAACCUCAAUGAAGUCAAACAC: 0.325 ratio
CAAGAAGUUCAAGGAGAUGGUCCAUUUCUGGAUGGAAUUAAUGUCACAAUAAGAAGAAAUUACAUUUAUGAAGAUGCUUAUGACAAACUUUCUCCAGAAAAUGAGCCUGAUUUGAAAAAG: 0.275 ratio
UUGGUGGUGCAUCUAGCCGAGGUGAAAACUCCUAUGGCCUGGAAACUGUGUGCAAGGAUAUCAGGAACUUGCGAUUUGCUCAUAAACCGGAGGGGCGAACAAGAAGAUCCAUAUUUGAGA: 0.195 ratio

Block 4
Target: Sal-like protein 4, full length isoform B (SALL4, Homo sapiens, UniProt Q9UJQ4-2, residues 1-616)
Technique: universal PBM
Form: double-stranded DNA, one strand shown
Medium: in vitro
Concentration: not given
Notes: 8-mer, flanks averaged, mean of replicates
Direction: higher = stronger binding
Quantity: E-score
CTAAGTGC: -0.089
AAACTCGG: -0.159
CTTGTTCC: 0.0358
CTTACTAA: 0.109
ACGGCGGG: -0.245
ACGACACG: -0.0418
CACGGGCA: -0.213
GTGGCGCA: -0.0996
TAAACAAA: 0.225
CGGTAATA: 0.265
AGCTCATA: 0.218
CGAAGTCC: -0.155
GGCCCGGA: -0.406
CGTCGCTC: -0.306
GGACGTAA: -0.0534
AGTTTGGG: 0.0787
GGTCGTGA: -0.00962
GTCTGTAA: 0.035

Excerpt of the above (block 2):
GGGCACATCTTAACATATGAGTGCTAG: -0.0274 z-score
TCAGTTTTCTCATTCGTACTGTGCTAG: 2.15 z-score
GACAATCTCAGTTTCGAGACGTGCTAG: 4.4 z-score
TTAGGTTTCGATTTTCGGTTAGTGCTA: 11.6 z-score
GACGGACTGCTTCTCATGACGTGCTAG: 0.143 z-score
TTAGGTTTCCTTTCCCTATAGTGCTAG: 2.55 z-score
